Published values collected from several papers.
Numbered parts are unrelated; each lists some results of a single study. Positions count from the first letter of the parent shown.

Study 1
Target: ABI1, truncated, D143A, DHFR fusion (Arabidopsis thaliana)
Technique: DHFR PCA, deep sequencing
Medium: yeast
Notes: methotrexate growth selection, single substitutions
With: (+)-ABA 0.032 µM
Reference: wild-type fitted maximum
Direction: higher = stronger binding
Starting sequence: PYL1, truncated, DHFR fusion (Arabidopsis thaliana); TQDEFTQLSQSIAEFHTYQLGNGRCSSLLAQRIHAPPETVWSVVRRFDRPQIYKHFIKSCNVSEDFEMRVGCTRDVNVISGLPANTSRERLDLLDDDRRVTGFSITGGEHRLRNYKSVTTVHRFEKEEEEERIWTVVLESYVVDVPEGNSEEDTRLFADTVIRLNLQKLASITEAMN
For `R46P`, “relative binding score” read -1.43%.
Under “relative binding score”, `E127C` is recorded as 29.1%.
For `I33G`, “relative binding score” read 1.44%.
Under “relative binding score”, `S63A` is recorded as 47.8%.
`R88N` — result for “relative binding score”: 4.49%.
Under “relative binding score”, `P36M` is recorded as 7.4%.
`A13I`: “relative binding score” 5.22%.
`S104R` — result for “relative binding score”: 2.23%.
`M68I` — result for “relative binding score”: 25.5%.
`D48C`: “relative binding score” -6.94%.
For `R98T`, “relative binding score” read 1.8%.
`R123K` — result for “relative binding score”: 54.3%.
`C72E`: “relative binding score” 15%.
Under “relative binding score”, `D95G` is recorded as -3.33%.
`V44W`: “relative binding score” -5.5%.
`F15P`: “relative binding score” -0.456%.
For `Q10C`, “relative binding score” read 7.45%.
`E174D`: “relative binding score” 0.243%.
`V40F`: “relative binding score” -15%.
`D97R`: “relative binding score” 16%.
`E4Y` — result for “relative binding score”: 10.8%.
`L156K`: “relative binding score” -2.82%.
For `D3Y`, “relative binding score” read 28.1%.
For `E38S`, “relative binding score” read 6.47%.
`F47M` — result for “relative binding score”: 2.49%.

Study 2
Target: CCND2, cyclin fold, Cln2 fusion (human)
Technique: yeast growth competition, sequencing
Medium: yeast
Notes: weak parent motif
Reference: not given
Direction: higher = stronger binding
Starting sequence: PKMYT1 docking peptide (human); SFEPRNLLSLFED
Under “normalised enrichment score”, `SFEPRNLLSRFED [L10R]` is recorded as -0.177.
`SFEPANALSLFED [R5A L7A]`: “normalised enrichment score” 0.1.
`SFEERNLLSLFED [P4E]` — result for “normalised enrichment score”: 0.207.
`SFEPRCLLSLFED [N6C]` — result for “normalised enrichment score”: 0.222.
`SFEPRHLLSLFED [N6H]`: “normalised enrichment score” 0.21.
`SSEPRNLLSLFED [F2S]`: “normalised enrichment score” -0.0632.
Under “normalised enrichment score”, `SFEPRNLPSLFED [L8P]` is recorded as 0.0481.
For `SFEPRNLLSLFLD [E12L]`, “normalised enrichment score” read -0.412.
Under “normalised enrichment score”, `SFEPRNLLSLDED [F11D]` is recorded as 0.188.
`IFEPRNLLSLFED [S1I]` — result for “normalised enrichment score”: -0.209.
For `FFEPRNLLSLFED [S1F]`, “normalised enrichment score” read -0.157.
Under “normalised enrichment score”, `SFEPRNLLSVFED [L10V]` is recorded as -0.0985.
For `SFEPRNMLSLFED [L7M]`, “normalised enrichment score” read -0.0758.
`SFEPRNLLSLFMD [E12M]` — result for “normalised enrichment score”: -0.071.
`SFEPRNLLSLFEY [D13Y]`: “normalised enrichment score” 0.153.
For `LFEPRNLLSLFED [S1L]`, “normalised enrichment score” read 0.0242.
For `SFEPRNLLSLFSD [E12S]`, “normalised enrichment score” read 0.0117.
`SFEPRNFLSLFED [L7F]` — result for “normalised enrichment score”: 0.0939.
Under “normalised enrichment score”, `CFEPRNLLSLFED [S1C]` is recorded as -0.194.
For `SFEPRNLFSLFED [L8F]`, “normalised enrichment score” read 0.116.
`KFEPRNLLSLFED [S1K]` — result for “normalised enrichment score”: -0.116.
Under “normalised enrichment score”, `SFEPRNLLSLFND [E12N]` is recorded as 0.277.
`SFEPRNLMSLFED [L8M]`: “normalised enrichment score” 0.288.
For `SFEYRNLLSLFED [P4Y]`, “normalised enrichment score” read 0.18.
For `SFEARNLLSLFED [P4A]`, “normalised enrichment score” read 0.17.

Study 3
Target: Histone acetyltransferase KAT6A, winged helix 2, GST fusion (KAT6A, Homo sapiens, UniProt Q92794, residues 85-181)
Technique: protein binding microarray
Form: double-stranded DNA, one strand shown
Medium: in vitro
Tested at: not given
Notes: 8-mer, flanks averaged, mean of 2 arrays, mostly near background
Reference: not given
Direction: higher = stronger binding
Residues (chain): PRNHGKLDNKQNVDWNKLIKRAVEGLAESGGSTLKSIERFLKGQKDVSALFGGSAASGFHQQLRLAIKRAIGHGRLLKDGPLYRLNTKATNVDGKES
With `GGCGGGCA` the E-score was 0.253.
`CTCGTACC` has an E-score of -0.106.
`CAAACGGA` has an E-score of 0.0371.
The E-score of `ATGTCTCC` is reported as -0.0269.
`ACGGCAAA` gave an E-score of 0.0399.
For `ACATAAAC`, the E-score was 0.0145.
For `CATACTAG`, the E-score was -0.1.
For `ACCTGAAG`, the E-score was -0.127.
`CCACAGAG` gave an E-score of 0.0692.
For `CGCCAGGC`, the E-score was 0.154.
`TCAACACA` has an E-score of 0.143.
`GCGTTAGA` has an E-score of 0.0347.
`CTTGATGC` has an E-score of 0.0903.
With `CATGTCAG` the E-score was -0.0597.
`TACCTCCA` has an E-score of -0.0136.
For `AGCCCTGA`, the E-score was 0.0449.
With `CCGCCTTA` the E-score was 0.132.
`CGTGGGAG` has an E-score of 0.171.
`CACCTTCA` gave an E-score of -0.0957.
`GGAGCCCA` gave an E-score of -0.158.

Other studies, line by line
`PhoQ, residues 284 288 289 292 302 303 SASVAL` has a fold induction of 11.1 (PhoP, residues 12 14 15 18 19 VQALL (Escherichia coli, UniProt P23836); Sort-seq, item: YFP reporter; E. coli; PhoQ-PhoP variant library, with: 10 µM Mg2+; reference: high Mg2+ state, higher = stronger signaling).

A few entries again (study 2):
Under “normalised enrichment score”, `SFEPRNLLSVFED [L10V]` is recorded as -0.0985.
For `SFEPRNMLSLFED [L7M]`, “normalised enrichment score” read -0.0758.
`SFEPRNLLSLFEY [D13Y]`: “normalised enrichment score” 0.153.
Under “normalised enrichment score”, `SFEPRNLPSLFED [L8P]` is recorded as 0.0481.
For `SFEYRNLLSLFED [P4Y]`, “normalised enrichment score” read 0.18.
`KFEPRNLLSLFED [S1K]` — result for “normalised enrichment score”: -0.116.
Under “normalised enrichment score”, `SFEPRNLLSRFED [L10R]` is recorded as -0.177.
